Measurements gathered from unrelated publications.
Values joined by “and” are separate records of one study, mostly repeats; a detail may differ. Numbers after ± are the reported error.
SLC6A6 Y138A: Sodium- and chloride-dependent taurine transporter (SLC6A6, Homo sapiens, UniProt P31641, Y138A)
TOP2A: DNA topoisomerase 2-alpha (TOP2A, Homo sapiens, UniProt P11388)
UGT1A1: UDP-glucuronosyltransferase 1A1 (UGT1A1, Homo sapiens, UniProt P22309)

CC(C)C[C@H](NC(=O)C[C@H](O)[C@H](CC(C)C)NC(=O)[C@H](Cc1c[nH]cn1)NC(=O)CNC(=O)[C@@H](NC(=O)[C@H](C)NC(=O)[C@H](Cc1c[nH]c2ccccc12)NC(=O)[C@H](CCC(N)=O)NC(=O)[C@@H](Cc1ccccc1)NC(=O)COCCOCCNC(=O)CCC(C(=O)O)N1CCN(CC(=O)O)CCN(CC(=O)O)CCN(CC(=O)O)CC1)C(C)C)C(N)=O (stereo partly shown) [lutetium-177 labelled] — tissue uptake (female BALB/c nu/nu mice, heart; intravenous, 100 pmol, 24 h, together with: PA 300 µg): 0.07 ± 0.08 %ID/g
CC1=C(/C=C/C(C)=C/C=C/C(C)=C/C=C/C=C(C)/C=C/C=C(C)/C=C/C2=C(C)CCCC2(C)C)C(C)(C)CCC1 — quenching rate constant (Beta-lactoglobulin (LGB, Bos taurus, UniProt P02754); intrinsic fluorescence; 298 K): 1.27e+12 ± 1.8e+11 L/mol/s
COc1cc(F)ccc1-c1ncnc(Nc2cccc(C[S@](C)(=N)=O)c2)n1 — remaining activity (NEK6 (Homo sapiens, UniProt Q9HC98); kinase activity; 10 µM, together with: 10 µM ATP): 107%
Nc1ccc(C(=O)O)cc1 — current density (BEST1, with wild-type BEST1 (Homo sapiens, UniProt O76090, R218H); ion current, whole-cell patch clamp; HEK293 co-expressing mutant and wild-type; concentration not given, voltage 100 mV): 7.13 pA/pF and 23.1 pA/pF and 12.6 pA/pF and 8.72 pA/pF and 28.1 pA/pF and 21.1 pA/pF and 50.9 pA/pF and 23.7 pA/pF
Cc1cc(Nc2ccc(S(F)(F)(F)(F)F)cc2)n2nc(C(C)(F)F)nc2n1 — patients with QTcF increase (Plasmodium falciparum; 12-lead ECG; malaria patients; oral, 400 mg, increase above 60 ms): 0%
O=C(COP(=O)(O)O)[C@@H](O)[C@H](O)[C@H](O)COP(=O)(O)O — thermal stability ratio (Long-chain-fatty-acid--CoA ligase 5 (Homo sapiens, UniProt Q9ULC5); thermal proteome profiling, refers to: ACSL5; HepG2 cell lysate; concentration not given, 57 over 37 °C; baseline: compound over control): 0.643 and 0.875 and 0.579
O=C(O)C(=O)Cc1ccc(O)cc1 — Km (Nostoc punctiforme; substrate, Ellman CoA release; together with: acetyl-CoA): 40 ± 4.2 µM
Nc1ncnc2c1ncn2[C@@H]1O[C@H](COP(=O)(O)OP(=O)(O)OP(=O)(O)O)[C@@H](O)[C@H]1O — normalized current (P2X purinoceptor 7 (P2rx7, Rattus norvegicus, UniProt Q64663, I214A/Q143A/R125A); ion current, agonist, two-electrode voltage clamp; Xenopus oocytes; 1.23 µM): 0.00184 and 0
O=C(O)C1CCCNC1 (stereo not shown) — fraction bound (SLC6A6 Y138A; binding, microscale thermophoresis; 30.5 nM, fitted curve; higher = more binding): 0.00151
Cc1nc(CSc2nc(SCc3ccc(C(C)C)cc3)nc(=O)[nH]2)cs1 — mean decatenated DNA (TOP2A; decatenation; 125 µM): 0%
CO[C@H]1O[C@H](COS(=O)(=O)O)[C@@H](O[C@@H]2O[C@@H](C(=O)O)[C@@H](O[C@H]3O[C@H](COS(=O)(=O)O)[C@@H](O[C@@H]4O[C@H](C(=O)O)[C@@H](O[C@H]5O[C@H](COS(=O)(=O)O)[C@@H](O)[C@H](O)[C@H]5NS(=O)(=O)O)[C@H](O)[C@H]4O)[C@H](OS(=O)(=O)O)[C@H]3NS(=O)(=O)O)[C@H](O)[C@H]2OS(=O)(=O)O)[C@H](O)[C@H]1NS(=O)(=O)O — binding enthalpy ΔH (Beta-2-glycoprotein 1, domain V (APOH, Homo sapiens, UniProt P02749, V266L); isothermal titration calorimetry; concentration not given, 298 K, together with: 150 mM NaCl): -4110 ± 637 cal/mol
O=C(O)[C@H]1O[C@@H](Oc2cc(-c3oc4cc(O)cc(O)c4c(=O)c3O)ccc2O)[C@H](O)[C@@H](O)[C@@H]1O — Vmax (UGT1A1; glucuronidation, substrate; Supersomes): 1.77 ± 0.71 nmol/mg/min
N#Cc1ccc2[nH]cc(CCCCN3CCN(c4ccc5oc(C(N)=O)cc5c4)CC3)c2c1 — Hill coefficient (SLC6A4 (Homo sapiens, UniProt P31645); serotonin uptake, inhibitor; COS-7 expressing SLC6A4; 30 min preincubation, together with: [3H]5-HT): 2.08 ± 0.4
CC(=O)OCC[N+](C)(C)C — current (CHRNB4/CHRNA6 (Homo sapiens, UniProt P30926+Q15825, E185F); two-electrode voltage clamp; Xenopus oocytes; α6β4 E155F mutant; baseline: wild type): decreased
Nc1nc2c(ncn2[C@@H]2O[C@H](COP(=O)(O)O)[C@@H](O)[C@H]2O)c(=O)[nH]1 — reaction rate (GUK1 (Homo sapiens, UniProt Q16774); enzyme activity, NADH-coupled; 15.62 µM): 14.1 s⁻¹ and 22.4 s⁻¹ and 19 s⁻¹
Cc1ncccc1OC[C@H]1CN(CCN2CCc3ccccc32)CCO1 — inhibition (HTR2C (Homo sapiens, UniProt P28335); radioligand binding; concentration not given, together with: [3H]mesulergine): 2.1%
O=C(O)CC[C@H](NC(=O)N[C@@H](CCCCNC(=O)[C@H](Cc1ccc2ccccc2c1)NC(=O)CCCCCNC(=O)CN1CCN(CC(=O)O)CCN(CC(=O)O)CCN(CC(=O)O)CC1)C(=O)O)C(=O)O [gallium-68 labelled] — tissue uptake (gamma counting; mouse, PC-3 xenograft, liver; intravenous, 3.7 MBq, 2 h): 8.57 ± 0.52 %ID/g
COc1cc(Nc2ncc3c(n2)-c2ccc(Cl)cc2C(c2c(F)cccc2OC)=NC3)ccc1C(=O)O — remaining activity (PDK1; kinase activity; 1 µM): 72%
O=C(Nc1nc2cccc(-c3ccc(CN4CCS(=O)(=O)CC4)cc3)n2n1)C1CC1 — treatment-emergent adverse events (refers to: body temperature increased; human rheumatoid arthritis patients; oral, 30 mg once daily, 4 weeks, regardless of relatedness): 0%
NCCCCC(=O)O — normalised MST signal (SLC6A6 Y138A; binding, microscale thermophoresis; 488 nM, room temperature, together with: 50 nM labelled protein; higher = more binding): 0.0186
C[C@]12CC[C@@H]3c4ccc(O)cc4CC[C@H]3[C@@H]1CC[C@@H]2O — Vmax (UGT1A1; glucuronidation, substrate; human liver microsomes; pH 7.5, 37 °C): 136 ± 4 pmol/min/mg protein
O=c1nc(SCc2cc(F)cc(C(F)(F)F)c2)nc(SCc2ccc3sccc3c2)[nH]1 — linear DNA (TOP2A; DNA cleavage; 15.6 µM, replicate 1): 0%
CC1(C)CC2(C)OC(=O)NC2(C)c2ccccc21 (stereo not shown) — log fold enrichment (Histone acetyltransferase type B catalytic subunit (Homo sapiens, UniProt O14929); binding, affinity selection mass spectrometry; baseline: other proteins in batch): -0.248
COc1cnc2cccc(N3CCc4c(cc(Cn5ccnc5C)cc4-c4cn(C)nc4C(F)(F)F)C3=O)c2c1 — EC50 (SW 1116; cell growth, inhibitor; 120 h): 352 nM
Nc1ncnc2c1ncn2[C@@H]1O[C@H](COP(=O)(O)CP(=O)(O)OP(=O)(O)O)[C@@H](O)[C@H]1O — calcium influx (P2X purinoceptor 1 (P2RX1, Homo sapiens, UniProt P51575, D97A); calcium influx; 1 µM; baseline: ionomycin response): 78.1% and 92.3% and 88.8% and 59.8%
C=C1CN(S(=O)(=O)c2ccc(C)cc2)CCCN(Cc2ccccc2)CCCN(S(=O)(=O)c2ccc(C)cc2)C1 — maximum down-modulation (Sortilin (Homo sapiens, UniProt Q99523); protein down-modulation, flow cytometry; HEK-293T transfected with GFP fusion): > 50%
CCCCCCCC/C=C\CCCCCCCC(=O)NCCc1ccc(O)c(O)c1 — Hill coefficient (Trpv1 (Mus musculus, UniProt Q704Y3, S513A); ion current, agonist, whole-cell patch clamp): 1.76 ± 0.6
COCCC(=O)N1CCC(Oc2ccccc2)C1 (stereo not shown) — log fold enrichment (RFWD3 (Homo sapiens, UniProt Q6PCD5); binding, affinity selection mass spectrometry; baseline: other proteins in batch): -0.0615
O=C(NC1CCC1)c1ccc2nc(-c3cccc(NS(=O)(=O)NCCN4CCCCC4)c3)cn2c1 — remaining activity (MAP3K13 (Homo sapiens, UniProt O43283); enzyme activity; 10 µM): 89%
N#Cc1ccn2c(-c3ccncc3)c(-c3ccc(F)cc3)nc2c1 — log2 fold change (Protein kinase C-like 1 (Candida albicans, UniProt P43057); kinase binding, competitor, MIB/MS competition, refers to: PKC1; Candida albicans cell lysate; 10 µM; baseline: DMSO): -0.283
CO[C@H]1O[C@H](COS(=O)(=O)O)[C@@H](O[C@@H]2O[C@@H](C(=O)O)[C@@H](O[C@H]3O[C@H](COS(=O)(=O)O)[C@@H](O[C@@H]4O[C@H](C(=O)O)[C@@H](O[C@H]5O[C@H](COS(=O)(=O)O)[C@@H](O)[C@H](O)[C@H]5NS(=O)(=O)O)[C@H](O)[C@H]4O)[C@H](OS(=O)(=O)O)[C@H]3NS(=O)(=O)O)[C@H](O)[C@H]2OS(=O)(=O)O)[C@H](O)[C@H]1NS(=O)(=O)O — bound fraction (Antithrombin-III (SERPINC1, Homo sapiens, UniProt P01008); binding, concanavalin A-Sepharose binding; room temperature, together with: Mn2+ 1 mM): 80%
O=C(CN1CCO[C@@H](COc2ccccn2)C1)N1CCc2ccccc21 — inhibition (HTR2A (Homo sapiens, UniProt P28223); radioligand binding; concentration not given, together with: [3H]ketanserin): 18.8%
CC[N+](CC)(CC)CCOc1cccc(OCC[N+](CC)(CC)CC)c1OCC[N+](CC)(CC)CC — Z score (TDP1 (Homo sapiens, UniProt Q9NUW8); binding, small molecule microarray; together with: AF647-labelled TDP1 1 µM; direction not given): 3.65
CC(=O)N[C@H](C(=O)N1C[C@H](O)C[C@H]1C(=O)NCc1ccc(-c2scnc2C)cc1)C(C)(C)SCCCCCCNC(=O)C[C@@H]1N=C(c2ccc(Cl)cc2)c2c(sc(C)c2C)-n2c(C)nnc21 — ΔG (BRD2/VHL, BD1; with VCB (Homo sapiens, UniProt P25440+P40337, K107A/Q101K/V106E); ITC; 25 °C, BRD2 BD1 KEA mutant, ternary): -10 ± 0.2 kcal/mol
Cn1cc(-c2ccc(-c3cncc(Cl)c3N3CCC4(CCNC4=O)CC3)cc2)cn1 — log2 fold change (COLO 205; gene expression, microarray, refers to: LAMP3 mRNA; concentration not given, 6 h; baseline: untreated cells): 2.92
C1=C/COCc2cc(ccc2OCCN2CCCC2)Nc2nccc(n2)-c2cccc(c2)COC/1 — percent of control (PIKFYVE (Homo sapiens, UniProt Q9Y2I7); concentration not given): 17%
COc1ccc(CC(=O)C(=O)O)cc1 — Km (Nostoc punctiforme; substrate, Ellman CoA release; together with: acetyl-CoA): 310 ± 53 µM
Nc1ccc2cc3ccc(N)cc3nc2c1 — binding enthalpy (Chymotrypsinogen A, activated (alpha-chymotrypsin) (Bos taurus, UniProt P00766); isothermal titration calorimetry; concentration not given, pH 7.4, 25 °C): -53 ± 4.6 kJ/mol
CCn1cc(-c2cc(Cn3ccoc3=N)cc3c2CCN([C@@H](C)c2cc(OC)ccn2)C3=O)c(C(F)(F)F)n1 — EC50 (SCC-9; cell growth, inhibitor; 120 h): 172 nM
CCC(C)(C)C(=O)O[C@H]1C[C@@H](C)C=C2C=C[C@H](C)[C@H](CC[C@@H]3C[C@@H](O)CC(=O)O3)[C@H]21.[Ca] — inhibition (Nedd8-cullin1 interaction; neddylation, AlphaScreen; 100 µM): -14.3%

Repeated from above:
Nc1ncnc2c1ncn2[C@@H]1O[C@H](COP(=O)(O)CP(=O)(O)OP(=O)(O)O)[C@@H](O)[C@H]1O — calcium influx (P2X purinoceptor 1 (P2RX1, Homo sapiens, UniProt P51575, D97A); calcium influx; 1 µM; baseline: ionomycin response): 78.1% and 92.3% and 88.8% and 59.8%
C=C1CN(S(=O)(=O)c2ccc(C)cc2)CCCN(Cc2ccccc2)CCCN(S(=O)(=O)c2ccc(C)cc2)C1 — maximum down-modulation (Sortilin (Homo sapiens, UniProt Q99523); protein down-modulation, flow cytometry; HEK-293T transfected with GFP fusion): > 50%
CCCCCCCC/C=C\CCCCCCCC(=O)NCCc1ccc(O)c(O)c1 — Hill coefficient (Trpv1 (Mus musculus, UniProt Q704Y3, S513A); ion current, agonist, whole-cell patch clamp): 1.76 ± 0.6
